Measurements pooled from the literature.
Parts stem from different laboratories: compare values within a part only. Substitutions count along the parent as printed.

Sample 1
Target: Ras GTPase-activating protein-binding protein 1, full length (G3BP1, Homo sapiens, UniProt Q13283)
Sequence of UniProt Q13283 (whole entry, looked up): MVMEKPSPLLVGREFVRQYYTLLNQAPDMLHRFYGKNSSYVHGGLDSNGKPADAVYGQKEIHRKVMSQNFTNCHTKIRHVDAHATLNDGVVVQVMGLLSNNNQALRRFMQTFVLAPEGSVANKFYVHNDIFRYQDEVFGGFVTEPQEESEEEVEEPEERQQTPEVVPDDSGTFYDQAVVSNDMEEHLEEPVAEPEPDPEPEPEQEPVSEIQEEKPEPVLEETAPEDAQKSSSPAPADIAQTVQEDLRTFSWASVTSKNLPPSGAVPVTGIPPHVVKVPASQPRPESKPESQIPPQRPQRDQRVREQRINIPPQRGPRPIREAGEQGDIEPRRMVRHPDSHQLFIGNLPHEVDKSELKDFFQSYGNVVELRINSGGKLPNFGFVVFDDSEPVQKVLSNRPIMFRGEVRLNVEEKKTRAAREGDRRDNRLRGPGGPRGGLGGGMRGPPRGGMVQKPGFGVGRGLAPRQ
Method: RNA Bind-n-Seq
Form: RNA
Matrix: in vitro
Concentration: 200 nM
Setting: whole 134-nt RNA, ends assumed
With: 150 mM LiCl
Reference: input library
Direction: higher = stronger binding
All molecules: 7-deaza-guanosine replaces G
`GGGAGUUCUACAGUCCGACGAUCCAAGUCCUGUGCUACACAUCGUAUGUACCGAAUCGGAAAAGGGAAAAGGAAAAGGGAAAGUAUUAUGUUACGCCGUUCGGAUCUGCACUUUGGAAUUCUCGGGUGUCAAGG` has a log2 enrichment of -1.07.
`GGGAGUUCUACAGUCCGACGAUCGCAGGAAGUAAAAACAAAUGGAAAUGCUUCGGAUAGUGGCAGGGGUGGGGGUUGCUAAGGAAAGGGUGGGAUGGGAGAAAGUAAAGAGUUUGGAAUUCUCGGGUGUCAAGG` gave a log2 enrichment of -0.0835.
The log2 enrichment of `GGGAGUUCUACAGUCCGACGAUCAGUCCUGUGCUACACAUCGUAUGUACCGAAUCGGGUUUUUUUGGGUUUUUGGGUGGGAAAGUAUUAUGUUACGCCGUUCGGAUCUGCACUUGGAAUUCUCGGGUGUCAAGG` is reported as -0.459.
`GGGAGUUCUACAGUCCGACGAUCGCAGGAAGUAAAAACAAAUGGAAAUGCUUCGGAUAGUGGCAGGGGUGGGGGUUGCUAAGGAAAGGGUGGGAAGGGAGUGGGUAAAGAGUUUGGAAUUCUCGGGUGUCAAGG` gave a log2 enrichment of 0.257.
The log2 enrichment of `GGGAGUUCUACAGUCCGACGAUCUCCUCAAGUCCUGUGCUACACAUCGUAUGUACCGAAUCGGCGGGCGGCGGGGAAAGUAUUAUGUUACGCCGUUCGGAUCUGCACUUCCAGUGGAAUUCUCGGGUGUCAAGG` is reported as 1.14.
`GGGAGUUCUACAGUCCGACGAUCAGUCCUGUGCUACACAUCGUAUGUACCGAAUCGGGGUUUUUUUGGGGAGGGGAGGGGAAAGUAUUAUGUUACGCCGUUCGGAUCUGCACUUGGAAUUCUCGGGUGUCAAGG` gave a log2 enrichment of 0.771.
`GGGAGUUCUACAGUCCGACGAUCGUCCUGUGCUACACAUCGUAUGUACCGAAUCGGGAAAGGGAAAAAAAGGGAAAAAGGGAAAGUAUUAUGUUACGCCGUUCGGAUCUGCACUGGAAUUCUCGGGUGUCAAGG` gave a log2 enrichment of -0.0185.
`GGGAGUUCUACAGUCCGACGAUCCUCAAGUCCUGUGCUACACAUCGUAUGUACCGAAUCGGGCCGGGCCGGCCGGGAAAGUAUUAUGUUACGCCGUUCGGAUCUGCACUUCCAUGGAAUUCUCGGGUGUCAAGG` gave a log2 enrichment of 0.923.

Sample 2
Target: PABPC1L2, full length, GST fusion (mouse, UniProt A0ABA7IW68)
Method: RNAcompete
Form: RNA
Matrix: in vitro
Concentration: 20 nM
Setting: 7-mer, probes averaged, single round
Reference: mean of 7-mers
Direction: higher = stronger binding
Residues (chain): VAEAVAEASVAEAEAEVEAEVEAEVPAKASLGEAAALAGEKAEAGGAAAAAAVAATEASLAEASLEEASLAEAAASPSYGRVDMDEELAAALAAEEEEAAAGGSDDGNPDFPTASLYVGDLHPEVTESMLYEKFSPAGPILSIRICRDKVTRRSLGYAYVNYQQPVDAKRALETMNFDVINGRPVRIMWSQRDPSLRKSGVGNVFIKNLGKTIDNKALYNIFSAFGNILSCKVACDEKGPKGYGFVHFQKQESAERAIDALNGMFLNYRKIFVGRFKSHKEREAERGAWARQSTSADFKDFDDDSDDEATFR
The 7-mer Z-score of `CUGAGCG` is reported as -0.11.
`AAUGACC` gave a 7-mer Z-score of 0.113.
`AAGUCGC` has a 7-mer Z-score of 0.0243.
`GACUCCC` has a 7-mer Z-score of -0.293.
With `GUUAUUC` the 7-mer Z-score was -0.402.
For `AUACAAU`, the 7-mer Z-score was 0.349.
`CUGGACA` has a 7-mer Z-score of -0.0736.
With `UCCAGCA` the 7-mer Z-score was -0.0464.
`ACCCAGG` gave a 7-mer Z-score of -0.0101.
The 7-mer Z-score of `CCCAUUA` is reported as -0.244.
For `UGCUAAA`, the 7-mer Z-score was 0.84.
For `UGCAUCU`, the 7-mer Z-score was -0.222.
`UCGUAUC` gave a 7-mer Z-score of -0.47.
The 7-mer Z-score of `CGAUUAC` is reported as -0.122.
The 7-mer Z-score of `CAGUAGC` is reported as -0.17.
The 7-mer Z-score of `UGAGAAG` is reported as -0.0863.
With `ACAAGAA` the 7-mer Z-score was 0.379.
The 7-mer Z-score of `AUCGUUU` is reported as -0.501.
For `UGACGCG`, the 7-mer Z-score was -0.258.
For `UCUCGGU`, the 7-mer Z-score was -0.36.
For `AAUCAGC`, the 7-mer Z-score was 0.204.
For `GUGCGAG`, the 7-mer Z-score was -0.0591.
`GUUCUCG` has a 7-mer Z-score of -0.441.
For `UUCUGUU`, the 7-mer Z-score was -0.443.
`CCGCUGA` gave a 7-mer Z-score of -0.237.

Sample 3
Target: Histone acetyltransferase KAT6A, winged helix 1, GST fusion (KAT6A, Homo sapiens, UniProt Q92794, residues 1-85)
Method: protein binding microarray
Form: double-stranded DNA, one strand shown
Matrix: in vitro
Concentration: not given
Setting: 8-mer, flanks averaged, mean of 2 arrays, mostly near background
Reference: not given
Direction: higher = stronger binding
Residues (chain): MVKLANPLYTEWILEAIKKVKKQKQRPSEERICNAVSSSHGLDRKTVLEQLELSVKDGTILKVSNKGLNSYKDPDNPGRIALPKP
For `GGGTTGCA`, the E-score was -0.0369.
The E-score of `GATGGAGA` is reported as -0.145.
For `ATAGGCAG`, the E-score was -0.303.
`ACTACCGA` gave an E-score of 0.0297.
With `CTAAATAA` the E-score was -0.0404.
`CCACCCGA` gave an E-score of 0.0931.
With `AATTAGCA` the E-score was -0.0538.
The E-score of `ACCAATCT` is reported as -0.212.
The E-score of `CAATCCTC` is reported as -0.179.
For `AAGTCGTA`, the E-score was -0.225.
`ACCGAGGA` gave an E-score of -0.0997.
`ATGACAGC` has an E-score of -0.192.
`AACCGTCA` has an E-score of 0.029.
With `AATCCTTA` the E-score was -0.255.
The E-score of `GGCAAGTA` is reported as -0.0315.
The E-score of `GAGCTTCC` is reported as 0.0654.
With `ATGTAACA` the E-score was -0.137.
`ATATTATG` has an E-score of -0.076.
With `CGCAGGAG` the E-score was -0.0368.

Sample 4
Target: Sal-like protein 4, full length isoform B (SALL4, Homo sapiens, UniProt Q9UJQ4-2, residues 1-616)
Method: universal PBM
Form: double-stranded DNA, one strand shown
Matrix: in vitro
Concentration: not given
Setting: 8-mer, flanks averaged, mean of replicates
Direction: higher = stronger binding
Residues (chain): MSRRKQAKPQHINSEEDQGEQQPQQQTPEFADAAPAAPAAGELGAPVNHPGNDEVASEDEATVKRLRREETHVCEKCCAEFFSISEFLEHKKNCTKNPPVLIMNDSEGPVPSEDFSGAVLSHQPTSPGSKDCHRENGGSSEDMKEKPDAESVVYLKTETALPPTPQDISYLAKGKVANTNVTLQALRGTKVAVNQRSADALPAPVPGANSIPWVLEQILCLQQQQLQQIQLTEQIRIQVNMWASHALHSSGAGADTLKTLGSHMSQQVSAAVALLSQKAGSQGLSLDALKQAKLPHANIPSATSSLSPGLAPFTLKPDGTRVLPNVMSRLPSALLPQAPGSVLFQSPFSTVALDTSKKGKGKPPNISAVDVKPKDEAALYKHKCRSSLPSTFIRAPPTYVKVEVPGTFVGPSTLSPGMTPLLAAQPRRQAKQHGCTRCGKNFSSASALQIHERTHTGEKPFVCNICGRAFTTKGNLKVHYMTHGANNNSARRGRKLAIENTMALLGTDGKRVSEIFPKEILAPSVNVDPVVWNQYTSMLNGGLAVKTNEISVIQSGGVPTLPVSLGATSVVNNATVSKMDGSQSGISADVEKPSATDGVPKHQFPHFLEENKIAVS
`GAGATCTC` gave an E-score of -0.0653.
The E-score of `CATCAGAG` is reported as -0.0762.
The E-score of `ACATGAGC` is reported as -0.0103.
With `AGGACGTC` the E-score was -0.0873.
The E-score of `AACCCAGA` is reported as -0.0587.
The E-score of `CGAACGAC` is reported as -0.154.
For `GAGACCTA`, the E-score was -0.151.
The E-score of `AGGGGAAA` is reported as 0.0149.
`CGTCGGAA` has an E-score of 0.00649.
For `CGCTGCCA`, the E-score was -0.168.
The E-score of `CAACCACC` is reported as -0.257.
With `CCGAGACA` the E-score was -0.185.
With `CTCGGGTC` the E-score was -0.213.
The E-score of `ACGCTGAC` is reported as -0.161.
For `CACCTAAA`, the E-score was 0.00264.
`GGGGCTAA` gave an E-score of -0.172.
The E-score of `GCTGGAAA` is reported as -0.0494.
The E-score of `AAAGAAAC` is reported as 0.0823.
With `TAACCCCA` the E-score was -0.133.
With `ACTAGGGA` the E-score was -0.0792.
The E-score of `GTTCTGAA` is reported as 0.0739.
With `AATGTGTC` the E-score was 0.0669.
For `ACATAAAC`, the E-score was 0.331.
With `AGGCCCAG` the E-score was -0.233.
The E-score of `AAGGAGTA` is reported as -0.0455.

Sample 5
Target: FOS, bZIP domain (human)
Method: DHFR protein complementation
Matrix: yeast
Setting: single substitutions, most at no-binding floor
Reference: wild-type JUN-FOS pair
Direction: higher = stronger binding
Parent: JUN, bZIP domain (human); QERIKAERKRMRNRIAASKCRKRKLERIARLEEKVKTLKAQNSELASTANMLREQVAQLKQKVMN; partner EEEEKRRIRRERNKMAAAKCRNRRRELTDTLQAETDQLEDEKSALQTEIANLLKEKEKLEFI
`S43V` gave a binding fitness of -0.13 natural log.
`A49N` gave a binding fitness of -1.3 natural log.
`E33H` has a binding fitness of -0.234 natural log.
`I28K` gave a binding fitness of -0.19 natural log.
`K34S` gave a binding fitness of -0.164 natural log.
With `V35K` the binding fitness was -0.0175 natural log.
With `E32G` the binding fitness was -0.238 natural log.
With `S47Y` the binding fitness was -0.149 natural log.
With `V35C` the binding fitness was -0.221 natural log.
The binding fitness of `L52V` is reported as -0.742 natural log.
With `L59H` the binding fitness was -1.15 natural log.
`Q41Y` has a binding fitness of -1.55 natural log.
With `A29T` the binding fitness was -0.102 natural log.
`A40F` gave a binding fitness of -0.182 natural log.
The binding fitness of `I28C` is reported as -0.283 natural log.

Sample 6
Target: CCNE1, cyclin fold, Cln2 fusion (human)
Method: yeast growth competition, sequencing
Matrix: yeast
Setting: strong parent motif
Reference: not given
Direction: higher = stronger binding
Parent: CDKN1C docking peptide (human); TSACRSLFGPVDH
For `ASACRSLFGPVDH [T1A]`, “normalised enrichment score” read 1.64.
`TAACRSLFGPVDH [S2A]` — result for “normalised enrichment score”: 1.54.
`TSACRSLLGPVDH [F8L]` — result for “normalised enrichment score”: 0.0444.
For `TSACRALFGPVDH [S6A]`, “normalised enrichment score” read 2.43.
`TSACRSLFAPVDH [G9A]`: “normalised enrichment score” 1.2.
Under “normalised enrichment score”, `TSACASAFGPVDH [R5A L7A]` is recorded as -0.282.
For `TSACRSAFGPVDH [L7A]`, “normalised enrichment score” read -0.27.
`TSAARSLFGPVDH [C4A]`: “normalised enrichment score” 0.286.
`TSACKSLFGPVDH [R5K]`: “normalised enrichment score” 0.424.

Some of these lines once more (sample 2):
With `UCCAGCA` the 7-mer Z-score was -0.0464.
`ACCCAGG` gave a 7-mer Z-score of -0.0101.
The 7-mer Z-score of `CCCAUUA` is reported as -0.244.
For `UGCUAAA`, the 7-mer Z-score was 0.84.
For `UGCAUCU`, the 7-mer Z-score was -0.222.
`UCGUAUC` gave a 7-mer Z-score of -0.47.
The 7-mer Z-score of `CGAUUAC` is reported as -0.122.
The 7-mer Z-score of `CAGUAGC` is reported as -0.17.
The 7-mer Z-score of `UGAGAAG` is reported as -0.0863.
With `ACAAGAA` the 7-mer Z-score was 0.379.
The 7-mer Z-score of `AUCGUUU` is reported as -0.501.
For `UGACGCG`, the 7-mer Z-score was -0.258.
For `UCUCGGU`, the 7-mer Z-score was -0.36.
